Measurements gathered from unrelated publications.
Each numbered part is a random draw from the data of one study; scales do not carry over between parts. Changes are numbered by the printed parent chain.

Sample 1 — target: CCND1, cyclin fold, Cln2 fusion (human); technique: yeast growth competition, sequencing; matrix: yeast; notes: weak parent motif; baseline: not given; reading: higher = stronger binding
Parent: MASTL docking peptide (human); PMIAKNLMCELDE
Variant | normalised enrichment score
PMIAKYLMCELDE [N6Y] | 0.0272
PMRAKNLMCELDE [I3R] | -0.0816
PMIAKNLMNELDE [C9N] | 0.0156
PMIVKNLMCELDE [A4V] | 0.139
PSIAKNLMCELDE [M2S] | 0.499
PMIAKNLACELDE [M8A] | 0.193
PMIAANLMCELDE [K5A] | 0.196
PEIAKNLMCELDE [M2E] | 0.353
PMIAKKLMCELDE [N6K] | 0.392
PMYAKNLMCELDE [I3Y] | 0.541
PMINKNLMCELDE [A4N] | 0.434
PMIAKNLCCELDE [M8C] | -0.252
PMISKNLMCELDE [A4S] | 0.111
PMIAKNLMCEMDE [L11M] | -0.516
PMIAKNLMCELAE [D12A] | 0.185
PMIAKHLMCELDE [N6H] | 0.22
PMIAKNKMCELDE [L7K] | 0.245
PMIAKNLGCELDE [M8G] | -0.064
PMIKKNLMCELDE [A4K] | 0.393

Sample 2 — technique: protein-binding microarray; molecule type: double-stranded DNA, one strand shown; matrix: in vitro; concentration: 940 nM top; notes: 60-bp whole probe; added: salmon DNA 0.4 mg/ml; baseline: random background probes; reading: higher = stronger binding; all sequences stand within: GCCTAGCAC … GTCTTGATTCGCTTGACGCTGCTG
Target: Interferon regulatory factor 5, full length, phosphomimetic (IRF5, Homo sapiens, UniProt Q13568-2, residues 1-514, S451D/S453D/S456D/S462D)
Strand | fitted relative affinity
TTAGATTTCGGGTATCGATTCGTGCTA | 3.71 z-score
TACGATTTCAGTCTCGAGACGTGCTAG | 2.01 z-score
GACGGTTTCGGAATCGGGACGTGCTAG | 7.66 z-score
TTAGGTATCGACTCTGGGTTAGTGCTA | 5.2 z-score
GACGGTCTCCTTTTTCTGACGTGCTAG | 0.936 z-score
TTAGATTTCATACTGGATTAGTGCTAG | 0.239 z-score
GACGGTTACGGTTCCGGGACGTGCTAG | 0.658 z-score
TTAGGTCTCGGTCCCGGTTAGTGCTAG | 3.7 z-score
TATGTTCCCTATTTAAGGCAGTGCTAG | 0.574 z-score
TCAGGTATGCTCATGACACTGTGCTAG | -0.185 z-score
GACGCACTGAGTCTCGAGACGTGCTAG | 0.808 z-score
TCAATGATTGGTTGAACACTGTGCTAG | -0.289 z-score
GACGATCTTAGTATCGAGACGTGCTAG | 2.04 z-score
GACGGTAACGGTATCGGGACGTGCTAG | 1.52 z-score
GACGGTCTCCGACTGCTGACGTGCTAG | -0.611 z-score
TCATGTAACTCCTATCCAACTGTGCTA | 0.817 z-score
TTAGGACTTGGGTATCGGTTAGTGCTA | 3.12 z-score
ACTTTTTTTTTTCCCTGAAAGTGCTAG | 1.34 z-score
TAAGGACTGGGTTTCGGTTAGTGCTAG | 6.75 z-score

Sample 3 — technique: protein binding microarray; molecule type: double-stranded DNA, one strand shown; matrix: in vitro; concentration: not given; baseline: not given; reading: higher = stronger binding
Target: Histone acetyltransferase KAT6A, both winged helices, GST fusion (KAT6A, Homo sapiens, UniProt Q92794, residues 1-181)
Notes: 8-mer, flanks averaged, mean of 2 arrays, mostly near background
Construct (chain): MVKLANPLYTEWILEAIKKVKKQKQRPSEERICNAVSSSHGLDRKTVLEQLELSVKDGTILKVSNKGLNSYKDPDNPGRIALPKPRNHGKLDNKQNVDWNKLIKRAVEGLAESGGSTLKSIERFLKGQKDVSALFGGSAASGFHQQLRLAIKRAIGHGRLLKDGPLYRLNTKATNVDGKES
Strand | E-score
ACCTGTTG | -0.164
GCCCAGAC | -0.192
CGAGATTC | 0.007
AGCACAGG | -0.069
AACAAGAT | -0.0593
AAATCTCA | -0.136
ATTGCTCG | -0.0849
AATCTACA | -0.0968
ATTACCGA | 0.0629
ATCTCACC | 0.0057
GTCGCGAC | 0.267
CACGGCTC | 0.173
CATCTCCC | 0.0643
CCGCGGCC | 0.4
ATTTCCAG | -0.129
ACCCTCCT | -0.182
GACGATTA | 0.0711
CCGAAGAC | -0.0931
ATCGCTGG | 0.07
CGTAACTC | 0.0347
CGGCGCGC | 0.401

Sample 4 — technique: RNA Bind-n-Seq; molecule type: RNA; matrix: in vitro; concentration: 1 µM; notes: whole 134-nt RNA, ends assumed; added: 150 mM KCl; baseline: input library; reading: higher = stronger binding
Target: Ras GTPase-activating protein-binding protein 1, C-terminal RGG region (G3BP1, Homo sapiens, UniProt Q13283)
Sequence of UniProt Q13283 (whole entry, looked up): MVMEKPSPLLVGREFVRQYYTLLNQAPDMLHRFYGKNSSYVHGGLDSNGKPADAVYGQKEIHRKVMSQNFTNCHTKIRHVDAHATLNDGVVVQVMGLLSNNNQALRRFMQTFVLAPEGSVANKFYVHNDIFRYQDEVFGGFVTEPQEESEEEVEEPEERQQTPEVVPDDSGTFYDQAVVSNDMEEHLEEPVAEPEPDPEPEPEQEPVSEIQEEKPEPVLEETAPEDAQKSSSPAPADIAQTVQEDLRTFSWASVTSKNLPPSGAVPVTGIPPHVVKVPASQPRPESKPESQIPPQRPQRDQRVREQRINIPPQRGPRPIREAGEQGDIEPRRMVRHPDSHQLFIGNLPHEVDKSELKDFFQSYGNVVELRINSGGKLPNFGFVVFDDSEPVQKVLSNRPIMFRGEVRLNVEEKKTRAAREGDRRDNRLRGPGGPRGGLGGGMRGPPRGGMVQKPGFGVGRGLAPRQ
All sequences stand within: GGGAGUUCUACAGUCCGACGAUC … UGGAAUUCUCGGGUGUCAAGG
Strand | log2 enrichment
UGGCCCUGGUGGCAUGCGGGGAGGAAGAGGUGGCCUCAUGGAUCGUGGUUGUCCCGGUGGAAUGUUCAGAGGUGGCCGUGGUGGAGACAG | 1.3
UGCAGUCGAGCCAGCACCUGUUUCUGGACCUGCCUAAGGUAAGUGAGCUUUUCUCUCAACCUAGUUUUCAGGAGGCCUCUUCUGUCCCCU | -0.105
CACAGACAACACGCACCCACACAGACACAGAGGGAAGGGGUUGGGAUGGGGACAGGGUGCACAGCAGGGCGAGGUAGGACCCCAGCCCCU | -0.373
GCAGGAAGUAAAAACAAAUGGAAAUGCUUCGGAUAGUGGCAGGGGUGGGGGUUGCCAAGGAAAGGGUGGGAUGGGAGUGGGUAAAGAGUU | 2.22
CAAGUCCUGUGCUACACAUCGUAUGUACCGAAUCGGGCCCCGGCCCCGGCCCCGGAAAGUAUUAUGUUACGCCGUUCGGAUCUGCACUUC | -2.35
UCAAGUCCUGUGCUACACAUCGUAUGUACCGAAUCGGGAAAGGGAGGGUUUGGGAAAGUAUUAUGUUACGCCGUUCGGAUCUGCACUUCC | 2.04
CACAGACAACACGCACCCACACAGACACAGAGGGAAGGGAAAGGGAUGGGGACAGGGUGCACAGCAGGGCGGGGUAGGACCCCAGCCCCU | -0.221

Other studies, line by line
Molecule | target | test | test system | conditions | scale | measurement | value
PhoQ, residues 284 288 289 292 302 303 ASASEQ | PhoP, residues 12 14 15 18 19 QWHVF (Escherichia coli, UniProt P23836) | Sort-seq, measured: YFP reporter | E. coli | PhoQ-PhoP variant library, added: 10 µM Mg2+ | baseline: high Mg2+ state, higher = stronger signaling | fold induction | 1.03

Some of these lines once more (sample 1):
Variant | normalised enrichment score
PMIAKHLMCELDE [N6H] | 0.22
PMIKKNLMCELDE [A4K] | 0.393
PMIAKYLMCELDE [N6Y] | 0.0272
PMIAKNLACELDE [M8A] | 0.193
PMIAKNLMNELDE [C9N] | 0.0156
PMISKNLMCELDE [A4S] | 0.111
PEIAKNLMCELDE [M2E] | 0.353
PSIAKNLMCELDE [M2S] | 0.499
PMIAKNLGCELDE [M8G] | -0.064
